# Published values from different studies.
# Each line is one published result; not all experiments were run side by side. Several values in a cell are separate wells, animals, samples, runs or records. ± marks the error that the study gave.
# AGTR1: Type-1 angiotensin II receptor (AGTR1, Homo sapiens, UniProt P30556)
Compound,target,test,test system,setting,IC50
CCCc1nc2c(C)cc(-c3nc4ccccc4n3C)cc2n1Cc1ccc(-c2ccccc2C(=O)Oc2ccc(/C=C/C(=O)OC)cc2OC)cc1,AGTR1,"calcium signal, antagonist",,,340 nM
Clc1ccccc1C(NCCCn1ccnc1)(c1ccccc1)c1ccccc1,"Gap junction alpha-8 protein (Gja8, Mus musculus, UniProt P28236)","gap junction current, inhibitor, dual whole-cell voltage clamp",transfected mouse N2a cell pairs,,7300 nM
CN(C)C(=O)c1ccc(CS(=O)(=O)CC(=O)C23CC4CC(CC(C4)C2)C3)o1,"11-beta-hydroxysteroid dehydrogenase 1 (HSD11B1, Homo sapiens, UniProt P28845)","enzyme activity in cells, inhibitor",,,122 nM
CCCCCCc1ccc(S(=O)(=O)N2CC2C(=O)OC)cc1 (stereo not shown),"Protein disulfide-isomerase (P4HB, Homo sapiens, UniProt P07237)","enzyme activity, inhibitor, absorbance",,pH 7.6,64 nM
CCOC(=O)c1cnc(Nc2nc3ccccc3o2)nc1-c1ccccc1,"Metabotropic glutamate receptor 5 (Grm5, Rattus norvegicus, UniProt P31424)","calcium signal, antagonist",,,124 nM
CN1Cc2c(Cl)cc(Cl)cc2C(c2ccc(S(=O)(=O)NCCOCCOCCNC(=O)C(O)C(O)C(=O)NCCOCCOCCNS(=O)(=O)c3ccc(C4CN(C)Cc5c(Cl)cc(Cl)cc54)cc3)cc2)C1 (stereo not shown),"Sodium/hydrogen exchanger 3 (Rattus norvegicus, UniProt P26433)","intracellular pH recovery, inhibitor, pH-sensitive dye","opossum kidney cells, transfected",,100 nM
COc1c(O)cc(-c2cc(=O)c3c(O)cc(O)cc3o2)cc1O,"iunh (Leishmania donovani, UniProt Q8WQX2)","enzyme activity, inhibitor, absorbance",,,1060 nM and 1100 nM
Cc1cc(O)n(Cc2ccccc2)n1,"Tryptophan 2,3-dioxygenase (TDO2, Homo sapiens, UniProt P48775)",inhibitor,,with: L-tryptophan 400 µM,268000 nM
Cc1ccc(O)c(C(=O)Nc2ccc(CN)cc2)c1,"Transmembrane protease serine 2 (TMPRSS2, Homo sapiens, UniProt O15393)","enzyme activity, inhibitor, fluorescence",,with preincubation,40500 nM
CC(C)(C)OC(=O)Nc1ccc(-c2cc(C(=O)NCCCCCCC(=O)NO)no2)cc1,HDAC (Lucilia cuprina egg nuclear extract),"enzyme activity, inhibitor, fluorometric",,,165 nM
COc1cc2nccc(Oc3ccc(NC(=S)N4CCC4)c(Cl)c3)c2cc1C(N)=O,"Fibroblast growth factor receptor 1 (FGFR1, Homo sapiens, UniProt P11362)",,,,70.4 nM
O=C(O)[C@@H]1Cc2c([nH]c3ccccc23)[C@@H](c2ccc(I)cc2F)N1,"MEP cytidylyltransferase IspD (Plasmodium falciparum, UniProt Q8I273)","enzyme activity, inhibitor, fluorimetric pyrophosphate",,60 nM enzyme,130 ± 20 nM
CCCCOC(=O)NS(=O)(=O)c1sc(CC(C)C)cc1-c1ccc(F)c(Cn2ccnc2)c1,AGTR1,ligand displacement in cells,,,> 10000 nM
CCCN(CC(=O)N(CCC)CC(=O)N(CCC)CC(=O)N(CCC)CC(=O)N(CCC)CC(=O)N(CC(N)=O)Cc1cn(CCCNC(=O)CCCOc2cccc(-c3nc4ccc(-c5nc6ccc(N7CCN(C)CC7)cc6[nH]5)cc4[nH]3)c2)nn1)C(=O)CNCc1cn(CCCNC(=O)CCCOc2cccc(-c3nc4ccc(-c5nc6ccc(N7CCN(C)CC7)cc6[nH]5)cc4[nH]3)c2)nn1,MBNL1–r(CUG)109 complex,MBNL1 displacement,,with: bulk yeast tRNA competitor,22000 ± 4000 nM
O=c1c(OCc2ccccc2)c(-c2ccc(N(c3ccccc3)c3ccccc3)cc2)oc2ccccc12,β-glucosidase,"enzyme activity, inhibitor",,,510 ± 260 nM
Cc1ccc(C(=O)Nc2cccc(C(F)(F)F)c2)cc1-c1ccc2c(-c3cnn(C4CC4)c3)n[nH]c2c1,"Epithelial discoidin domain-containing receptor 1 (DDR1, Homo sapiens, UniProt Q08345)","enzyme activity, inhibitor, ELISA",,,14.1 nM

# Some of these lines once more:
Compound,target,test,test system,setting,IC50
O=c1c(OCc2ccccc2)c(-c2ccc(N(c3ccccc3)c3ccccc3)cc2)oc2ccccc12,β-glucosidase,"enzyme activity, inhibitor",,,510 ± 260 nM
Cc1ccc(C(=O)Nc2cccc(C(F)(F)F)c2)cc1-c1ccc2c(-c3cnn(C4CC4)c3)n[nH]c2c1,"Epithelial discoidin domain-containing receptor 1 (DDR1, Homo sapiens, UniProt Q08345)","enzyme activity, inhibitor, ELISA",,,14.1 nM
